Experimental data from different studies.
Each line is one published result; not all experiments were run side by side. Values joined by “and” are separate records of one study, mostly repeats; a detail may differ. Numbers after ± are the reported error.
MAPK8: Mitogen-activated protein kinase 8 (MAPK8, Homo sapiens, UniProt P45983)
STING1 H232R: Stimulator of interferon genes protein (STING1, Homo sapiens, UniProt Q86WV6, H232R)
Dipeptidyl peptidase 8: Dipeptidyl peptidase 8 (Homo sapiens, UniProt Q6V1X1)

SMILES	tested on	test	test system	setting	how to read	endpoint	result
C=C1CC2(C(=O)OC)C=C(C(=O)OC(C)(C)C)C(=O)C1C2 (stereo not shown)	MAPK8	D-peptide binding, inhibitor, FP peptide displacement		125 µM	lower is stronger displacement	fraction bound	0.333
COC(=O)[C@@]1(C)C=C(C(=O)Nc2cccc(C(=O)Nc3ccc(Nc4nccc(-c5cccnc5)n4)c(C)c3)c2)C(=O)CC1	Mitogen-activated protein kinase 8, phosphorylated (MAPK8, Homo sapiens, UniProt P45983)	enzyme activity after dialysis, inhibitor		10 µM, 2 days, unit not given	baseline: no inhibitor	remaining activity	0.132
CC[C@H](C)[C@@H]1NC(=O)[C@H](Cc2ccc(O)cc2)NC(=O)[C@H](Cc2ccccc2)NC(=O)[C@H](C(C)C)NC(=O)[C@H](Cc2ccccc2)NC(=O)CSC[C@@H](C(=O)N[C@@H](Cc2c[nH]cn2)C(N)=O)NC(=O)[C@H](CC(N)=O)NC(=O)[C@H](Cc2c[nH]c3ccccc23)NC1=O	STING1 H232R	thermal stability, DSF		50 µM		ΔTm	8.66 °C
C#CCOC(=O)[C@@]1(C)C=C(C(=O)OC(C)(C)C)C(=O)CC1	MAPK8	enzyme activity, D-SENSOR		0.06097 µM, mean of replicates		normalized kinase activity	0.984
CC[C@H](C)[C@@H]1NC(=O)[C@H](Cc2c[nH]c3ccccc23)NC(=O)[C@H](C)NC(=O)[C@H](Cc2ccc(O)cc2)NC(=O)CNC(=O)[C@H](Cc2ccccc2)N(C)C(=O)[C@H](C)N(C)C(=O)[C@H](Cc2ccc(O)cc2)NC(=O)[C@H](C(C)C)NC(=O)[C@H](CC(C)C)NC(=O)[C@H](Cc2ccccc2)NC(=O)CSC[C@@H](C(=O)NCC(N)=O)NC1=O	STING1 H232R	thermal stability, DSF		200 µM		ΔTm	0.29 °C
COC(=O)C1(C)C=C(C(=O)OC(C)(C)C)C(=O)CC1 (stereo not shown)	MAPK8	D-peptide binding, inhibitor, FP peptide displacement		125 µM	lower is stronger displacement	fraction bound	0.454
COc1ccccc1-c1ccncc1C(=O)Nc1nnc(OCc2ccc(Cl)cc2)s1	DNA polymerase theta, helicase domain (POLQ, Homo sapiens, UniProt O75417)	ATPase activity, ADP-Glo		0.24 µM, together with: ATP 600 µM		remaining activity	29%
CC(C)Oc1cc(Cl)ccc1CNc1cc(-c2ccccc2)nc2ncnn12	G-protein coupled receptor 3 (GPR3, Homo sapiens, UniProt P46089, I200W)	cAMP GloSensor	human cells	3 µM	higher is more cAMP	cAMP luminescence	27200 a.u. and 33800 a.u. and 29800 a.u. and 23500 a.u.
N#CN1CC[C@H](C(=O)Nc2nc3c(s2)CN(C(=O)Cn2cc(CNC(=O)CCCC[C@@H]4SC[C@@H]5NC(=O)N[C@@H]54)nn2)CC3)C1	Isochorismatase domain-containing protein 1 (Homo sapiens, UniProt Q96CN7)	probe binding, affinity probe, neutravidin pull-down LC-MS/MS	HEK293T, cell lysate	5 µM, 1 h, mean of three replicates, unit not given	higher = more pulled down	iBAQ abundance	1.79e+08
C[Si](C)(C)C[C@H](CN)CC(=O)O	Histamine H2 receptor (HRH2, Homo sapiens, UniProt P25021)	cell-free assay, inhibitor		250 µM		inhibition	-2%
O=C1c2sc(-c3ccc(N4CCC(CO)CC4)nc3F)nc2CCN1c1cccnc1	TAR DNA-binding protein 43, aggregated (TARDBP, Homo sapiens, UniProt Q13148)	binding, surface plasmon resonance	brain-derived TDP-43 aggregates	4.69 nM		SPR response	1.47 RU
C/C1=C\CC/C(C)=C/CC(C)(C)/C=C/C1	Transient receptor potential cation channel subfamily V member 1 (Trpv1, Rattus norvegicus, UniProt O35433)	inhibitor, outside-out patch clamp		10 µM, together with: pH 5.5 activation		remaining current fraction	0.58 ± 0.02
Cc1cc(C)c(CNC(=O)c2c(C)n(C(C)C3CCC(NC4(C)COC4)CC3)c3ccccc23)c(=O)[nH]1 (stereo not shown)	Histone-lysine N-methyltransferase EZH2 (EZH2, Homo sapiens, UniProt Q15910)	binding, TR-FRET				residence time	114 min
O=C(O)C1OC(OC2C(C(=O)O)OC(OC3C(C(=O)O)OC(OC4C(C(=O)O)OC(OC5C(C(=O)O)OC(OC6C(C(=O)O)OC(O)C(O)C6O)C(O)C5O)C(O)C4O)C(O)C3O)C(O)C2O)C(O)C(O)C1O (stereo not shown)	Beta-lactoglobulin (LGB, Bos taurus, UniProt P02754, A134V/G80D)	isothermal titration calorimetry		pH 4.00, 37 °C, 50 mM KH2PO4		-TΔS	1.2 kcal/mol
O=C(N1CCCC1)n1cc(-c2ccc(-c3ccccc3)cc2)nn1	Isoamyl acetate-hydrolyzing esterase 1 homolog (Iah1, Mus musculus, UniProt Q9DB29)	probe labelling, inhibitor, competitive ABPP-SILAC, refers to: Iah1	mouse T cells	concentration not given, 4 h, protein level	baseline: treated over DMSO cells, lower = stronger inhibition	SILAC activity ratio	1.27
CCC1(CC)C(=O)N(c2cc(O)cc(C(=O)N3CCN(Cc4ccc(Br)cc4)CC3)c2)C1=O	Dipeptidyl peptidase 8	inhibitor		together with: GP-AMC substrate	baseline: Ki' DPP9 over Ki' DPP8	selectivity ratio	11
CN(Cc1cc(C2CC2)on1)C(=O)c1cccc(-c2ccc3c(c2)CCO3)c1	acetoacetyl-CoA synthetase (Cryptococcus neoformans)	enzyme activity, inhibitor		977 nM		remaining activity	102%
O=C(c1ccccc1)N1CCN(CC(OCc2ccc3ccccc3c2)c2ccc(Cl)cc2Cl)CC1 (stereo not shown)	Serine/threonine-protein kinase ULK1 (ULK1, Homo sapiens, UniProt O75385)	enzyme activity, inhibitor, ADP detection		0.1 µM		activity vs control	106%
Cc1cc(C)cc(COc2cc3c(cc2OCc2cc(C)cc(C)c2)C2CC(O)(Cc4cn(CCOCCOCCNC(=O)CCCCC5SCC6NC(=O)NC65)nn4)CC(C)N2CC3)c1 (stereo not shown)	Programmed cell death protein 6 (Homo sapiens, UniProt O75340)	biotinylated probe pull-down, refers to: PDCD6		10 µM probe	baseline: heavy over light	SILAC ratio	2.04

SMILES	tested on	test	test system	setting	how to read	endpoint	result
CC(C)[C@@H]1NC(=O)[C@H](Cc2ccccc2)NC(=O)CSC[C@@H](C(N)=O)NC(=O)[C@H](CCC(=O)O)NC(=O)[C@H](CO)NC(=O)[C@H](Cc2c[nH]c3cccc(Cl)c23)NC(=O)[C@H](C2CCCCC2)NC(=O)[C@H](C(C)C)NC(=O)[C@H](Cc2ccc(O)cc2)NC(=O)[C@H](CC(=O)O)NC(=O)[C@H](Cc2c[nH]c3ccccc23)NC(=O)[C@H](Cc2ccc(N)nc2)NC(=O)[C@H](Cc2c[nH]c3ccc(Cl)cc23)NC(=O)[C@H](CCC(=O)O)NC1=O	Interleukin-1 receptor-like 2 (IL1RL2, Homo sapiens, UniProt Q9HB29)	reporter gene (SEAP), inhibitor, HEK-Blue IL-36R reporter	HEK-Blue IL-36R cells	0.41 µM, 6 h, together with: IL-36γ 0.03 ng/mL		remaining activity	0.1%
Cc1ncsc1-c1ccc(C(C)NC(=O)C2CC(O)CN2C(=O)C(NC(=O)CCCCCCCCCCN2CCCC(Nc3ncc(Cl)c(Nc4ccccc4S(=O)(=O)C(C)C)n3)C2)C(C)(C)C)cc1 (stereo not shown)	22Rv1	RNA-seq, refers to: RILPL1 mRNA		concentration not given	baseline: DMSO	log2 fold change	-1.15
C[C@@H]1C[C@H](Nc2ccccc2)c2cc(F)ccc2N1C(=O)c1ccc(F)cc1	Ecdysone receptor (Aedes albopictus, UniProt Q9U3Y4)	ligand binding, inhibitor	intact cells	together with: [3H]ponasterone A	direction not given	pIC50 Z-score	-0.94
CCOC(=O)[C@](CC)(CCCSCCOCCOCCNC(=O)CCCCCN1C(=CC=CC=CC2=[N+](C)c3ccc4ccccc4c3C2(C)C)C(C)(C)c2c1ccc1ccccc21)NC(=O)c1ccc(C2CC2)c(Cc2ccc(F)cc2)n1.[Cl-]	Cannabinoid receptor 2 (Cnr2, Mus musculus, UniProt P47936)	cAMP, agonist				Emax	119%
CC(=O)N[C@H]1[C@H]([C@H](O)[C@H](O)CNC(=O)c2ccc(-c3ccccc3)cc2)O[C@@](OCc2cn(CC(O)Cn3c([N+](=O)[O-])cnc3C)nn2)(C(=O)O)C[C@@H]1O (stereo partly shown)	B-cell receptor CD22 (CD22, Homo sapiens, UniProt P20273)	ITC				ΔG	-7.18 ± 0.13 kcal/mol
CN(C)c1ccc(-n2cc(COC(=O)[C@]3(C)C=C(C(=O)OC(C)(C)C)C(=O)CC3)nn2)cc1	MAPK8	D-peptide binding, inhibitor, FP peptide displacement		0.7812 µM	lower is stronger displacement	fraction bound	0.918
O=C(Nn1c(-c2cccc(Cl)c2)nc2ccccc2c1=O)c1ccccc1	TRPM channel TRPM_PZQ (Fasciola hepatica, UniProt A0A4E0RBW4)	cell-attached patch clamp		10 µM		single channel conductance	138 ± 4 pS
CCCCCCCCCCCCC/C=C/C=O	Elongation factor 2, Cys41 (EEF2, Homo sapiens, UniProt P13639)	competitive isoTOP-ABPP	proteome, soluble, MDA-MB-231	100 µM, 60 min, together with: iodoacetamide probe	baseline: DMSO over compound-treated, higher = stronger cysteine blockade	isoTOP-ABPP competition ratio	1.3
O=[N+]([O-])c1cc(Br)cc([N+](=O)[O-])c1NS(=O)(=O)c1ccc(Br)cc1	PYL10, with HAB1 (Arabidopsis thaliana, UniProt Q8H1R0)	antagonist		250 µM, together with: ABA 5 µM	higher = more HAB1 activity	HAB1 phosphatase activity	0.106 a.u. and 0.117 a.u. and 0.107 a.u.
CC1(C)C[C@@H](Nc2cccc(-c3sc(C(=O)O)c(OCC(=O)O)c3Cl)c2)CCN1S(=O)(=O)Cc1cccc(NC(=O)CN2CCC(c3ccc4c(c3)oc(=O)n4C3CCC(=O)NC3=O)CC2)c1 (stereo partly shown)	Tyrosine-protein phosphatase non-receptor type 2 (PTPN2, Homo sapiens, UniProt P17706)	degrader, bio-layer interferometry		1000 nM, biotinylated protein immobilised	higher = more binding	BLI binding response	0.477 a.u. and 0.466 a.u.
CCCCCC=CC=C1C(=O)C=CC1CC=CCCCC(=O)O (stereo not shown)	TBC1 domain family member 13 (TBC1D13, Homo sapiens, UniProt Q9NVG8)	competitive isoTOP-ABPP	proteome, soluble, MDA-MB-231	100 µM, 60 min, together with: iodoacetamide probe	baseline: DMSO over compound-treated, higher = stronger cysteine blockade	isoTOP-ABPP competition ratio	6.1
O=C(Cc1ccc(OCc2ccccc2)cc1)NC1(C(=O)O)CCN(C(=O)c2ccc(-c3cccc(Cl)c3)cc2)CC1	Transcription initiation factor TFIID subunit 1-like (TAF1L, Homo sapiens, UniProt Q8IZX4)	enzyme activity, inhibitor		10 µM		activity vs control	96%
COC(=O)[C@@]1(Cc2ccccc2)C=C(C(=O)OC(C)(C)C)C(=O)CC1	MAPK8	D-peptide binding, inhibitor, FP peptide displacement		500 µM	lower is stronger displacement	fraction bound	-0.0933
CCCC1(C)C(=O)N(c2cccc(CN3CCN(Cc4ccc(Br)cc4)CC3)c2)C1=O	Dipeptidyl peptidase 8	inhibitor		together with: GP-AMC substrate	baseline: Ki' DPP9 over Ki' DPP8	selectivity ratio	> 6
COC1CN([C@H]2CC[C@H]([C@@]3(C)Oc4c(Cl)cc(C(=O)NCc5c(SC)cc(C)[nH]c5=O)c(C)c4O3)CC2)C1		RNA-seq, refers to: NAALAD2	human, whole blood	dose not given, 24 h	baseline: pretreatment baseline	log2 fold change	1.03
Cc1cn(CC(=O)N(CC(=O)N[C@H]2COC[C@@H]2N(CC(=O)NCCOCCOCC(N)=O)C(=O)Cn2cnc3c(N)ncnc32)[C@H]2COC[C@@H]2NC(=O)CN(C(=O)Cn2cnc3c(N)ncnc32)[C@H]2COC[C@@H]2NC(=O)CN(C(=O)Cn2cnc3c(=O)[nH]c(N)nc32)[C@H]2COC[C@@H]2NC(=O)CN(C(=O)Cn2cc(C)c(=O)[nH]c2=O)[C@H]2COC[C@@H]2NC(=O)CN(C(=O)Cn2cnc3c(=O)[nH]c(N)nc32)[C@H]2COC[C@@H]2NC(=O)CN(C(=O)Cn2cc(C)c(=O)[nH]c2=O)[C@H]2COC[C@@H]2NC(=O)CN(C(=O)Cn2cnc3c(N)ncnc32)[C@H]2COC[C@@H]2NC(=O)CN(C(=O)Cn2cnc3c(=O)[nH]c(N)nc32)[C@H]2COC[C@@H]2N)c(=O)[nH]c1=O	complementary RNA	duplex formation, UV melting curve fit	PBS	1 µM, 298 K		ΔG	-18 ± 0.1 kcal/mol
CCCCCC(O)/C=C/C=O (stereo not shown)	Elongation factor 2 (EEF2, Homo sapiens, UniProt P13639)	competitive isoTOP-ABPP	Ramos soluble proteome	100 µM, together with: iodoacetamide probe	baseline: DMSO over compound-treated, higher = stronger cysteine blockade	isoTOP-ABPP competition ratio	1.6
Cc1cc(=O)oc2cc(NC(=O)CCCCCCCC(=O)NO)ccc12	Histone deacetylase 8 (HDAC8, Homo sapiens, UniProt Q9BY41)	ITC	Tris-HCl buffer	concentration not given, 293 K		binding stoichiometry	0.9

Repeated from above:
SMILES	tested on	test	test system	setting	how to read	endpoint	result
CC[C@H](C)[C@@H]1NC(=O)[C@H](Cc2c[nH]c3ccccc23)NC(=O)[C@H](C)NC(=O)[C@H](Cc2ccc(O)cc2)NC(=O)CNC(=O)[C@H](Cc2ccccc2)N(C)C(=O)[C@H](C)N(C)C(=O)[C@H](Cc2ccc(O)cc2)NC(=O)[C@H](C(C)C)NC(=O)[C@H](CC(C)C)NC(=O)[C@H](Cc2ccccc2)NC(=O)CSC[C@@H](C(=O)NCC(N)=O)NC1=O	STING1 H232R	thermal stability, DSF		200 µM		ΔTm	0.29 °C
CN(C)c1ccc(-n2cc(COC(=O)[C@]3(C)C=C(C(=O)OC(C)(C)C)C(=O)CC3)nn2)cc1	MAPK8	D-peptide binding, inhibitor, FP peptide displacement		0.7812 µM	lower is stronger displacement	fraction bound	0.918
O=C(Cc1ccc(OCc2ccccc2)cc1)NC1(C(=O)O)CCN(C(=O)c2ccc(-c3cccc(Cl)c3)cc2)CC1	Transcription initiation factor TFIID subunit 1-like (TAF1L, Homo sapiens, UniProt Q8IZX4)	enzyme activity, inhibitor		10 µM		activity vs control	96%
